Measurements of several laboratories.
Lines come from different studies, so protocols differ. ± marks the error that the study gave.
OPRM1: Mu-type opioid receptor (OPRM1, Homo sapiens, UniProt P35372)
UniProt P35372, sequence (whole entry, unmodified, looked up): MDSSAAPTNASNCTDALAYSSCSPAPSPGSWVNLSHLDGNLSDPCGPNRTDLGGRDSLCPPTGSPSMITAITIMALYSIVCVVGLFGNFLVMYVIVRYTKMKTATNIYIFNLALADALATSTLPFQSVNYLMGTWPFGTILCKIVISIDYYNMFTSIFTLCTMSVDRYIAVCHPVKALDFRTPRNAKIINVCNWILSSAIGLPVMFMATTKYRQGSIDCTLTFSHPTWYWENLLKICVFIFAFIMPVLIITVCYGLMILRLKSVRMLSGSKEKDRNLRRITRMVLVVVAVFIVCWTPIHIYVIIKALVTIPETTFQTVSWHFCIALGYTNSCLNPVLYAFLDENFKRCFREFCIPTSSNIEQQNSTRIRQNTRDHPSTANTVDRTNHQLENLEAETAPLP

| SMILES | target or system | assay | system | setting | measurement | value |
| --- | --- | --- | --- | --- | --- | --- |
| NC(=O)c1[nH]nc([C@@H]2O[C@H](CO)[C@@H](O)[C@H]2O)c1O | human coronavirus OC43 | virus-induced cell killing | MRC-5 | screen | maximum inhibition | 20.2% |
| CC(Cc1ccccc1)NCCC(c1ccccc1)c1ccccc1 (centres unmarked) | OPRM1 | radioligand binding, inhibitor | CHO-K1 | together with: [3H]naloxone | IC50 | 1790 nM |
| COc1ccc2cc(-c3nc(-c4ccc([S+](C)[O-])cc4)[nH]c3-c3ccncc3)ccc2c1 (centres unmarked) | human coronavirus OC43 | virus-induced cell killing | MRC-5 | screen | maximum inhibition | 46.4% |
| COc1cc(C(=O)N2CC[C@@H](O)[C@@H](N)C2)cc2nc(-c3cc4ccccc4n3CC3CC3)n(C)c12 | OPRM1 | agonist, GTPγS binding |  |  | EC50 | > 100 µM |
| Oc1cccc([C@@]23CCC[C@@H](C2)N(CCc2ccccc2)C[C@H]3O)c1 (relative stereo) | OPRM1 | antagonist |  |  | Kb | 12 ± 2 nM |
| Oc1cccc(N2C3CCC2CN(CCc2ccccc2)C3)c1 | OPRM1 |  |  |  | EC50 | 0.00027 ± 6e-05 µM |
| COc1cc(Nc2ncc(F)c(Nc3ccc4c(n3)NC(=O)C(C)(C)O4)n2)cc(OC)c1OC | OPRM1 |  |  |  | IC50 | > 10000 nM |
| CC(C(O)c1ccc(O)cc1)N1CCC(Cc2ccccc2)CC1 (centres unmarked) | OPRM1 | binding |  |  | Ki | 1420 nM |
| CC[C@@H]1CN2CCc3c([nH]c4cccc(OC)c34)[C@@H]2C[C@@H]1/C(=C\OC)C(=O)O | OPRM1 | G protein activation, agonist, BRET | human cells |  | EC50 | > 100 µM |
| CC(NCCc1ccc(O)cc1)C(O)c1ccc(O)cc1 (centres unmarked) | OPRM1 | receptor activation, agonist |  |  | EC50 | 8.1 µM |
| CC[C@@H](c1cccc(O)c1)[C@@H](C)CN(C)C | OPRM1 (Homo sapiens, UniProt P35372, N40D) | agonist | human cells | N40D receptor, no receptor depletion | EC50 | 0.398 µM |

Repeated from above:
| SMILES | target or system | assay | system | setting | measurement | value |
| --- | --- | --- | --- | --- | --- | --- |
| CC[C@@H]1CN2CCc3c([nH]c4cccc(OC)c34)[C@@H]2C[C@@H]1/C(=C\OC)C(=O)O | OPRM1 | G protein activation, agonist, BRET | human cells |  | EC50 | > 100 µM |
| CC(NCCc1ccc(O)cc1)C(O)c1ccc(O)cc1 (centres unmarked) | OPRM1 | receptor activation, agonist |  |  | EC50 | 8.1 µM |
